# Measured values pooled from the literature.
# Parts stem from different laboratories: compare values within a part only.

# Study 1 — cell line: HEK-293T; effect on: pseudovirus infection; technique: FDA-approved drug library screen; organism: VSV pseudotyped with SARS-CoV-2 spike; concentration: 10 µM; time: 16 h; baseline: vehicle-treated
SMILES,GFP-positive cells [%]
NC(=O)N[C@@H](CCC(=O)O)C(=O)O,82.2
OC[C@H]1O[C@@H](O[C@@H]2[C@@H](CO)OC(O)(CO)[C@H]2O)[C@H](O)[C@@H](O)[C@H]1O (mixture of isomers),89.2
C[C@H]1c2cccc(O)c2C(=O)C2=C(O)[C@]3(O)C(=O)C(C(N)=O)=C(O)[C@@H](N(C)C)[C@@H]3[C@@H](O)[C@@H]21,89.8
CCCCN1CCCC[C@H]1C(=O)Nc1c(C)cccc1C,84.2
Cc1ccc(S(=O)(=O)NC(=O)NN2CCCCCC2)cc1,84.9

# Study 2 — technique: RNA Bind-n-Seq; form: RNA; matrix: in vitro; concentration: not given; setting: RNA with constant flanks, ends assumed; baseline: input RNA pool; reading: higher = stronger binding
# Target: RING finger protein unkempt homolog, zinc fingers 1-6, GST-SBP tag (UNK, Homo sapiens, UniProt Q9C0B0, residues 30-357)
# Constant ends, left off below: GGGAGUUCUACAGUCCGACGAUC … CAACAGAGGAUUGAGCAUCA
# Residues (chain): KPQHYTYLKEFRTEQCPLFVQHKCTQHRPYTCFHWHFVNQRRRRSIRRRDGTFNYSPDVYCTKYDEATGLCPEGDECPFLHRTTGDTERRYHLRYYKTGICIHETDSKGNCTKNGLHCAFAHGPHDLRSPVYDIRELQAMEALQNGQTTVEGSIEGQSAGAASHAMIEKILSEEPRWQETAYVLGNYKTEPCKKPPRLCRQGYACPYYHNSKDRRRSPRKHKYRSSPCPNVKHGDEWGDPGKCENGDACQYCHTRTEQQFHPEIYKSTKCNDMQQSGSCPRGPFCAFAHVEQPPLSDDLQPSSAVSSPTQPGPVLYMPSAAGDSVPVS
Sequence,bound/input enrichment [ratio]
UCCAGAAGCACUGCGUAUGAAGAUUAUUACUACCACCCUCCUCCUCGCAUGCCACCUCCAAUCCGAGGUCGGGGUCGUGGUGGGGGGAGAGGUGGAUAUGGCUACCCUCCAGAUUACUAC,0.0843
AUGGCCCAUGUGCUCUGUAACAGAGCCAGACUGGUUUCCUAUCUCCCAGGAUUUUGUUCUUCCGUGAAAAGAGUCAUCAAUCCAAGAGCCUUUUCAACUGCAGGAUCUUCAGGUUCUGAU,0.0589
CUUUUUAAGAAGAUAUGUGAUGGGAUCUUCUAUACCCCUCAAUAUUUAAAUCCUUCUGUGAUCCGCCUUUUGAAACAUAUGCUGCAGGUGGAUCCCAUGAAGAGGGCCACAAUCAAAGAU,0.229
CUUCUGUUUGUAAGGAUGAUUUUAAUAUUAAUUCCAGGAACACAUGUUUUUAUUUCCUCUGCUGGAACCGGAGAAAGCUUAAUAUAUUCCCAAGCUGAAUGUUCUUGAAUUAUAUCUGCA,0.228
AGCAGAAGCAGGAACGUCAGAAGUUGAAGGGCAUCCUCAGCUGUCCGCGAGUUCUGCCGGACAUUCCAAUUUGGAUUUUUAUUAUUGCUGGAAAAAAGUUUGCUUUACCCCAGACUUGAA,0.107
CCCCCUCGGAAGAAAAGGGCACGGGCUGACCCCACUGUGGAGAGCGAGGAGGCAUUCAAGAGCCGGAUGGAGGUGAAGGUGAAGAUCCCUGAAGAAUUAAAACCGUGGCUGGUGGAGGAC,0.518
GCCCCCAGAAGACCCAUAGAAAUGAGAGGCCUGAGGUCUACAAGUCGCUGCUAGAAAUAUUUCCGCCUCUCCAAAGCCCAGAAUGCAGCCCCGACCCAAGUUUGUAAGGGUUCUGGGUGC,0.555
CAGAGUAUAGCAAUUGUUUUUGGUCCCACUCUAUUAAAACCAGAAAAAGAGACUGGUAAUACCGCAGUUCAUACUGUGUACCAGAAUCAGAUUGUAGAAUUAAUUCUUCUGGAACUGAGU,0.386

# Study 3 — effect on: enzyme activity; mode: inhibitor; concentration: 20 µM; setting: primary screen
# Target: Replicase polyprotein 1ab, main protease (rep, Severe acute respiratory syndrome coronavirus 2, UniProt P0DTD1)
Compound,inhibition
Oc1c(CN2CCCC2)cc(COCc2ccccc2)c2cccnc12,28.7%
Nc1ccc(O)c2ncccc12,99.3%
Nc1nc(S)c2ncn([C@@H]3O[C@H](CO)[C@@H](O)[C@H]3O)c2n1,100%
COc1cccc(C(=O)CCN[C@@H](C)[C@H](O)c2ccccc2)c1,90.8%
CN(C)CCNc1nc2cc(O)ccc2c2c1C(=O)c1ccccc1-2,96.1%

# Study 4 — effect on: enzyme activity; mode: inhibitor; concentration: 20 µM
# Target: Replicase polyprotein 1ab, polymerase (rep, Severe acute respiratory syndrome coronavirus 2, UniProt P0DTD1)
Structure (SMILES),inhibition [%]
O=C(Nc1cccc(C(F)(F)F)c1)Nc1ccc(Br)cc1-c1nn[nH]n1,74
N=C(N)NCCN1CCCCCCC1,14.7
C=CC(=O)Nc1cccc(Oc2nc(Nc3ccc(N4CCN(C)CC4)cc3OC)ncc2Cl)c1,0.89
C[N+]1(C)[C@@H]2C[C@@H](OC(=O)C(O)(c3cccs3)c3cccs3)C[C@H]1[C@@H]1O[C@@H]12,2.3
CC1(C)CCC(C)(C)c2cc(NC(=O)c3ccc(C(=O)O)cc3)ccc21,-4.97
CC(C)NNC(=O)c1ccncc1,16.7
CN(C)Cc1ccc(-c2nc3cccc4c3n2CCNC4=O)cc1,-1.96
CCN1CCCC1CNC(=O)c1cc(S(=O)(=O)CC)c(N)cc1OC (stereo not shown),3.15
CN(C(=O)C(Cl)Cl)c1ccc(OC(=O)c2ccco2)cc1,-12.3
Cc1ccc(S(=O)(=O)Cc2nc(-c3ccc(C(=O)NCc4cccnc4)cc3)oc2C)cc1,-7.32
NC(=O)c1cccc(-c2cc(Nc3ccc(OC(F)(F)F)cc3)ncn2)c1,11.1
CCOC(=O)[C@@H](C)Oc1ccc(Oc2nc3ccc(Cl)cc3o2)cc1,-4.46
CCN1C(C)(C)CC(Oc2ccc(C(=O)Nc3ccc(NC(=O)Nc4cc(C(C)(C)C)on4)cc3)nc2)CC1(C)C,0.5
CC(C)(C)C(=O)OCOC(=O)[C@@H]1N2C(=O)[C@@H](NC(=O)[C@H](N)c3ccccc3)[C@H]2SC1(C)C,1.83
CC(C)(S)[C@@H](N)C(=O)O,2.01
c1ccc2sc(N3CCN(Cc4ccc5c(c4)OCO5)CC3)nc2c1,11.7
CC(C)(CO)[C@@H](O)C(=O)NCCC(=O)O,3
Cc1cccn2c(=O)c(/C=C(\C#N)c3nc4ccccc4s3)c(Oc3ccc(F)cc3)nc12,6.38
Cc1cc(-c2ccccc2)nnc1NCCN1CCOCC1,26.6
CCOC(=O)Nc1ccc2c(c1)N(C(=O)CCN1CCOCC1)c1ccccc1S2,-2.92
COc1ccc(CCCOC(Cn2ccnc2)c2ccc(OC)cc2)cc1 (stereo not shown),-17.6
CNC(=O)c1c(C)oc2cc(Oc3ncnc4cc(OC)c(OC)cc34)ccc12,-6.33
CC(=O)Nc1ccc(OCC(O)CNC(C)C)cc1 (stereo not shown),3.89

# Study 5 — technique: protein-binding microarray; form: double-stranded DNA, one strand shown; matrix: in vitro; concentration: not given; reading: higher = stronger binding
# Target: Protein C-ets-1 (ETS1, Homo sapiens, UniProt P14921, residues 1-441, Y397A, full length assumed)
# UniProt P14921, sequence (whole entry, unmodified, looked up): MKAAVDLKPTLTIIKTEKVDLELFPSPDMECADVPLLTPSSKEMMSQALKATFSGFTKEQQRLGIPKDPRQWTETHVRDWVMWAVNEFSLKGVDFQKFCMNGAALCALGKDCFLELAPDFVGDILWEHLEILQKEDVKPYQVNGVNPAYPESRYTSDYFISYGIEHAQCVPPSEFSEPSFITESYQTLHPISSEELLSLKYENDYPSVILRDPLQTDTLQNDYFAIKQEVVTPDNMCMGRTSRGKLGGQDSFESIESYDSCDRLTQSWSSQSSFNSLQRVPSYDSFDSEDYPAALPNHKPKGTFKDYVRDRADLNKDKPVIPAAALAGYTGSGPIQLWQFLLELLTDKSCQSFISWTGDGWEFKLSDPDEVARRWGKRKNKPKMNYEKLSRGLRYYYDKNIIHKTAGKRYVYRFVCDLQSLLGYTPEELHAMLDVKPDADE
# Setting: k-mer, scored over probes, only values ≥0.25
Sequence,E-score
ATACATAT,0.266
GCCCCAAC,0.286
ACAGTGCA,0.254
TATTGTCA,0.282
GGCAGTCA,0.252

# A few entries again (study 2):
Sequence,bound/input enrichment [ratio]
AGCAGAAGCAGGAACGUCAGAAGUUGAAGGGCAUCCUCAGCUGUCCGCGAGUUCUGCCGGACAUUCCAAUUUGGAUUUUUAUUAUUGCUGGAAAAAAGUUUGCUUUACCCCAGACUUGAA,0.107
CAGAGUAUAGCAAUUGUUUUUGGUCCCACUCUAUUAAAACCAGAAAAAGAGACUGGUAAUACCGCAGUUCAUACUGUGUACCAGAAUCAGAUUGUAGAAUUAAUUCUUCUGGAACUGAGU,0.386
GCCCCCAGAAGACCCAUAGAAAUGAGAGGCCUGAGGUCUACAAGUCGCUGCUAGAAAUAUUUCCGCCUCUCCAAAGCCCAGAAUGCAGCCCCGACCCAAGUUUGUAAGGGUUCUGGGUGC,0.555
CUUUUUAAGAAGAUAUGUGAUGGGAUCUUCUAUACCCCUCAAUAUUUAAAUCCUUCUGUGAUCCGCCUUUUGAAACAUAUGCUGCAGGUGGAUCCCAUGAAGAGGGCCACAAUCAAAGAU,0.229
CCCCCUCGGAAGAAAAGGGCACGGGCUGACCCCACUGUGGAGAGCGAGGAGGCAUUCAAGAGCCGGAUGGAGGUGAAGGUGAAGAUCCCUGAAGAAUUAAAACCGUGGCUGGUGGAGGAC,0.518
